Experimental data of several laboratories.
Lines come from different studies, so protocols differ. ± marks the error that the study gave.

`CNCC(=O)N[C@@H](CO)C(=O)N[C@H]1[C@H](O)[C@@H](O)[C@H](n2ccc(N)nc2=O)O[C@@H]1C(N)=O` has an EC50 of 271 ± 2.8 µg/mL (tobacco mosaic virus; protective activity; in vivo plant).
With `CC(C)C[C@H](NC(=O)OCc1ccccc1)C(=O)N[C@H](C=O)C[C@@H]1CCCNC1=O` the EC50 was 5670 ± 1500 nM (Norovirus; viral replication; HG23 replicon cells; 96 h).
The EC50 of `CC(C)(C)[C@H](NC(=O)C(F)(F)F)C(=O)N1C[C@H]2[C@@H]([C@H]1C(=O)N[C@H](C#N)C[C@@H]1CCNC1=O)C2(C)C` is reported as 290 nM (HCoV-OC43; viral replication; Huh-7; 48 h).
`O=c1[nH]c(=O)n([C@H]2C[C@H](O)[C@@H](CO)O2)cc1/C=C/Br` has an EC50 of 5890 nM (varicella-zoster virus; viral replication; HEL, 07-1 TK-).
`C[C@H]1CN(c2n[nH]c3nc(N[C@H]4CC[C@H](NS(=O)(=O)CCC(F)(F)F)CC4)ncc23)CCO1` gave an EC50 of 10.1 ± 0.1 nM (Leishmania donovani; cell growth; promastigotes, LdBOB CRK6 overexpressing).
`Nc1nc2c(ncn2COCCO)c(=O)[nH]1` has an EC50 of 80 nM (herpes simplex virus 2; viral cytopathic effect; HEL, G).
`CCC(C)n1ncn(-c2ccc(N3CCN(c4ccc(OCC5COC(Cn6cncn6)(c6ccc(Cl)cc6Cl)O5)cc4)CC3)cc2)c1=O` (centres unmarked) gave an EC50 of 60 ± 10 nM (coxsackievirus A16; viral replication, inhibitor; 72 h).
For `O=c1[nH]c(=O)n([C@H]2C[C@H](O)[C@@H](CO)O2)cc1/C=C/Br`, the EC50 was 107000 nM (varicella-zoster virus; plaque formation; HEL, Oka, TK-).
`COC(=O)N[C@H](C(=O)N1CCC[C@H]1c1ncc(-c2ccc(-c3ccc(-c4cnc([C@@H]5CCCN5C(=O)[C@@H](NC(=O)OC)C(C)C)[nH]4)cc3)cc2)[nH]1)C(C)C` has an EC50 of 0.0049 nM (hepatitis C virus; viral replication, transient replicon; genotype 1a NS5A WT).
`CCC(C(=O)Nc1sc(C(N)=O)c(C)c1C(=O)OC)c1ccccc1` (centres unmarked) gave an EC50 of over 100000 nM (human alphaherpesvirus 1; viral replication; Vero; 53 h).
For `c1cc(CN2CCCNCCNCCCNCC2)ccc1CN1CCCNCCNCCCNCC1`, the EC50 was 0.0122 µg/mL (HIV-2; viral replication; MT-4, ROD).

For quick reference, copied from above:
`O=c1[nH]c(=O)n([C@H]2C[C@H](O)[C@@H](CO)O2)cc1/C=C/Br` has an EC50 of 5890 nM (varicella-zoster virus; viral replication; HEL, 07-1 TK-).
